# Results collected from several papers.
# Each numbered part is a random draw from the data of one study; scales do not carry over between parts. Values joined by “and” are separate records of one study, mostly repeats; a detail may differ. pIC50: −log10 of the molar value.
# UniProt Q9Y4K4, sequence (whole entry, looked up): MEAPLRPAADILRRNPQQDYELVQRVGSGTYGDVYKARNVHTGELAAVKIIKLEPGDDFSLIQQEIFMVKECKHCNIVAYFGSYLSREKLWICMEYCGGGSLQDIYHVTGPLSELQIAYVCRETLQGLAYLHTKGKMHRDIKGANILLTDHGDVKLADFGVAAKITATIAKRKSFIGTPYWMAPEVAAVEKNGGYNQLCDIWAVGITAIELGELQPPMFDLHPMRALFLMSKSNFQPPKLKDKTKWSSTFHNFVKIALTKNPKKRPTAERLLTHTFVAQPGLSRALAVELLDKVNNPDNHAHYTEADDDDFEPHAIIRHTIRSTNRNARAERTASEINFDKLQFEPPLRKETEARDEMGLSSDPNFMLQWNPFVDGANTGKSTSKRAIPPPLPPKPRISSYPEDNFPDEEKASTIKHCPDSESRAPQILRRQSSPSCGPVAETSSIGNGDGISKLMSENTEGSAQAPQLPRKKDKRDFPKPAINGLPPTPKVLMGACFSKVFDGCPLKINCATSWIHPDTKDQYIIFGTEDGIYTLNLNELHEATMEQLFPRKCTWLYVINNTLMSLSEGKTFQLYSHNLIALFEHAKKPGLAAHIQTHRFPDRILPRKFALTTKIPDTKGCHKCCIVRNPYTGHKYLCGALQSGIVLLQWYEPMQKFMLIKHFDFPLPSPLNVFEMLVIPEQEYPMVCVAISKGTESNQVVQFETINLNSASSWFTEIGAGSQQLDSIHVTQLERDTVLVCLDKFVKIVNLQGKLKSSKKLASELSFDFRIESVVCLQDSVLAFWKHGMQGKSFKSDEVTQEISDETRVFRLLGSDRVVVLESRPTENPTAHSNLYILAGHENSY
# UniProt O43283, sequence (whole entry, looked up): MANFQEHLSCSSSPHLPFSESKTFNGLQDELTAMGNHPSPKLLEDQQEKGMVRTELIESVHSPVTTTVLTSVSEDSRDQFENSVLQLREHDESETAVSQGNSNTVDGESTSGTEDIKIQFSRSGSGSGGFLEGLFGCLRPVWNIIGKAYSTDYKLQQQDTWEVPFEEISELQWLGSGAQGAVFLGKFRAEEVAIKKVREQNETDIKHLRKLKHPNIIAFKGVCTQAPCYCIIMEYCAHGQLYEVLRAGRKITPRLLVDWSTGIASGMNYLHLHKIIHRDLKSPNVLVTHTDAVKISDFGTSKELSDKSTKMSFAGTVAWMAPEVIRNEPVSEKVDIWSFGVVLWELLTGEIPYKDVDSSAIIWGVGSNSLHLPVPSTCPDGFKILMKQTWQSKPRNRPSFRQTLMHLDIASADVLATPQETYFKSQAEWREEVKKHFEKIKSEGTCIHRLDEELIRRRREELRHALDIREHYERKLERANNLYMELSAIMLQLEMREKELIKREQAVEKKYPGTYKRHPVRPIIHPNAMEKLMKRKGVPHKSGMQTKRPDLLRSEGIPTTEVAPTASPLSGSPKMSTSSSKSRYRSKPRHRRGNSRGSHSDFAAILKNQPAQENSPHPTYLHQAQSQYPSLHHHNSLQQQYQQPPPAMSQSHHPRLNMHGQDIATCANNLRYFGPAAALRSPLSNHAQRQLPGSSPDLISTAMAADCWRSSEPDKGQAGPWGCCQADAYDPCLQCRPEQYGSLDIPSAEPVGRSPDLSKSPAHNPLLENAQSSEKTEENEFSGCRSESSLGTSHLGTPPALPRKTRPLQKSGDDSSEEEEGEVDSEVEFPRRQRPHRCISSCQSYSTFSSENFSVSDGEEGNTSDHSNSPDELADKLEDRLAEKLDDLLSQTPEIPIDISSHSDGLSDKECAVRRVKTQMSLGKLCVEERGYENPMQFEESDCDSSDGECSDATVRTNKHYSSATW
# UniProt Q9NYL2, sequence (whole entry, looked up): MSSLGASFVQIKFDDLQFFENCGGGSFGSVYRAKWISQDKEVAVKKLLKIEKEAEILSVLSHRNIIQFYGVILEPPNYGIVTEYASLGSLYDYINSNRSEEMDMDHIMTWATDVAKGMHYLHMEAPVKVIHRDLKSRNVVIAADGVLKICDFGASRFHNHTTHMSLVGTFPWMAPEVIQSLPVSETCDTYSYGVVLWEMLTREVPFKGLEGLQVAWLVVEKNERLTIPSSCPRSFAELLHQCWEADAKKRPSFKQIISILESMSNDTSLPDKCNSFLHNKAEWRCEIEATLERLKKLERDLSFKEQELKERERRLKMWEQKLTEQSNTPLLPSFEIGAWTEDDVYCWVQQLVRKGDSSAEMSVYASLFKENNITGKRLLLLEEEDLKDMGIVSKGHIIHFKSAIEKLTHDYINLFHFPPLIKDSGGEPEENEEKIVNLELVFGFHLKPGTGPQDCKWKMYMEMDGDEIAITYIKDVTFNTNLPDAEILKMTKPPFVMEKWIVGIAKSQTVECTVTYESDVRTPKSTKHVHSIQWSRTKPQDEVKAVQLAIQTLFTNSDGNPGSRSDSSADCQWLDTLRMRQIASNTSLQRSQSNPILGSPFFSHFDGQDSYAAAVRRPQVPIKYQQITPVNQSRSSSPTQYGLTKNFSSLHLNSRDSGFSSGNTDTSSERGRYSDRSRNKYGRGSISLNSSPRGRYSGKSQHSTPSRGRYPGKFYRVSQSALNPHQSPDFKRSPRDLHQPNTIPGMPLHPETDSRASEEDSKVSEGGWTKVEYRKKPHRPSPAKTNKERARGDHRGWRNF
# UniProt P06241, sequence (whole entry, looked up): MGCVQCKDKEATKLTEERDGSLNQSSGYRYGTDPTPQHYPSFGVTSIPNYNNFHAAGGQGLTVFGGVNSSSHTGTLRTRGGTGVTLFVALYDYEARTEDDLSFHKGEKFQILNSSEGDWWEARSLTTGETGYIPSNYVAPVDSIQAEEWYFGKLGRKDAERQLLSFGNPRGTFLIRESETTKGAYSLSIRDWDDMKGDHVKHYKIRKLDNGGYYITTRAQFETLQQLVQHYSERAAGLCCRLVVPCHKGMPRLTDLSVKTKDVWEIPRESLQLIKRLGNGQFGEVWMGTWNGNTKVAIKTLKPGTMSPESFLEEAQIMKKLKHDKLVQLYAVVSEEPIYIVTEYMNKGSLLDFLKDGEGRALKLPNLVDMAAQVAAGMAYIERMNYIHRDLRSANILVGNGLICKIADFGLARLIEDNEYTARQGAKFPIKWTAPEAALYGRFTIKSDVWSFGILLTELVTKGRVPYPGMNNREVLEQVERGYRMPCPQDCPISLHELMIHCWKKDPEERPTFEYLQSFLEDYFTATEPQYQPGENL
# UniProt Q15349, sequence (whole entry, looked up): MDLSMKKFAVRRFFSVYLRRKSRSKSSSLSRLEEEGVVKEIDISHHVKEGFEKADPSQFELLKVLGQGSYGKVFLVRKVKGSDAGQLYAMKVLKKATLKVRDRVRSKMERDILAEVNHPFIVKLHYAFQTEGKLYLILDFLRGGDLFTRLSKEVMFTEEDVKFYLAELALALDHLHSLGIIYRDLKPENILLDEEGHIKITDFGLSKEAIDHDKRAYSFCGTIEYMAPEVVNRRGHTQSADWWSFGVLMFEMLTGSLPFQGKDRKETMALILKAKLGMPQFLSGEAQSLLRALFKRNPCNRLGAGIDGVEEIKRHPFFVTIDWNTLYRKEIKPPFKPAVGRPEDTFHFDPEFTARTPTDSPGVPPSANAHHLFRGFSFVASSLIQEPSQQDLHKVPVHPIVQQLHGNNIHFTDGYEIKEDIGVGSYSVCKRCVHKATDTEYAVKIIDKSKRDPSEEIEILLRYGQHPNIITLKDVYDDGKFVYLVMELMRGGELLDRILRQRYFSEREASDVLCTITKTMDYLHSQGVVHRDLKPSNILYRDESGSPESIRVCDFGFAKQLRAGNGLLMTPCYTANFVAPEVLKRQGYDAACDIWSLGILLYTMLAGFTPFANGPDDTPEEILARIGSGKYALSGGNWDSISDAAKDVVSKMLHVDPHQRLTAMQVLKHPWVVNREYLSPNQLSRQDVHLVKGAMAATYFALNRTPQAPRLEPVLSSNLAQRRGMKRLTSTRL

# Series 1 — observed: enzyme activity; mode: inhibitor; concentration: 0.5 µM; reference: control
# Target: Death-associated protein kinase 3 (DAPK3, Homo sapiens, UniProt O43293)
# UniProt O43293, sequence (whole entry, looked up): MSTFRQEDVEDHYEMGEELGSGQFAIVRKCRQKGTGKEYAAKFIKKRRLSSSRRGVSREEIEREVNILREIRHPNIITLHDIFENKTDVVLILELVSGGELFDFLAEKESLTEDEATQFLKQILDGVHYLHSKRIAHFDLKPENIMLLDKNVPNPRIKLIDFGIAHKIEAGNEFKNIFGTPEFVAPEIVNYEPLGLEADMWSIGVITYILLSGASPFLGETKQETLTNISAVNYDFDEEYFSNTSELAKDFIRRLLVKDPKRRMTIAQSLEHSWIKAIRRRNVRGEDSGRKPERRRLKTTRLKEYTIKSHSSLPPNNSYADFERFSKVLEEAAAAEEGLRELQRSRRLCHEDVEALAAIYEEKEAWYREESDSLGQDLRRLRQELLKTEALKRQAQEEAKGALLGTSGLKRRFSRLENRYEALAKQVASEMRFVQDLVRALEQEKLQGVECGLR
Structure (SMILES),remaining activity
Cn1cnc2cc3c(Nc4cccc(Br)c4)ncnc3cc21,93.7%
Cc1nc(Nc2ncc(C(=O)Nc3c(C)cccc3Cl)s2)cc(N2CCN(CCO)CC2)n1,107%
CC(=O)O/N=C1/C(c2c(O)[nH]c3cc(Br)ccc23)=Nc2ccccc21,82.2%
O=C(Nc1ccc(Cl)cc1)c1ccccc1NCc1ccncc1,94%
CC(C)[C@H](CO)Nc1nc(Nc2cccc(Cl)c2)c2ncn(C(C)C)c2n1,104%
COc1ccc(Cl)cc1NC(=O)Nc1cc(C)nc2ccccc12,100%
CN(C)CCCn1cc(C2=C(c3c[nH]c4ccccc34)C(=O)NC2=O)c2ccccc21,84.5%
CC(C)c1nn(-c2c(Cl)cccc2Cl)c2nc(Cc3ccc(OCCO)cc3)[nH]c(=O)c12,104%
COc1cc2ncnc(N3CCN(C(=O)Nc4ccc(Oc5ccccc5)cc4)CC3)c2cc1OC,101%
O=C1NC(=O)/C(=C/c2ccc3nccnc3c2)S1,93.3%
O=c1cc(N2CCOCC2)oc2c1ccc1ccccc12,94.6%
COc1ccc(-c2cnc3c(-c4ccsc4)cnn3c2)cc1,81.9%
Cn1cc(/C=C2\C(=O)Nc3ccc(S(N)(=O)=O)cc32)c2ccccc21,94.1%
CCOc1cc2ncnc(Nc3cccc(Br)c3)c2cc1OCC,103%
Nc1[nH]nc2nnc(-c3c(-c4ccccc4)nn4ccccc34)cc12,102%
C[S+]([O-])c1ccc(-c2nc(-c3ccncc3)c(-c3ccc(F)cc3)[nH]2)cc1 (stereo not drawn),95.5%
CCN1/C(=C/C(C)=O)Sc2ccc(OC)cc21,98.7%
COc1cc2ncnc(Nc3ccc(OCc4ccccc4)cc3)c2cc1OC,99.2%
CCC(=O)Nc1ccc2ncnc(Nc3cccc(Br)c3)c2c1,104%
Cc1ccc(NC(=O)c2ccc(CN3CCN(C)CC3)cc2)cc1Nc1nccc(-c2cccnc2)n1,91.5%
COc1cc2ncc(-c3ccccc3)nc2cc1OC,84.7%

# Series 2 — route: subcutaneous; dose: 0.3 mg/kg/day DON equivalent; time: 5 days; direction: higher = more metabolite
# Compound: CC(=O)N[C@@H](Cc1c[nH]c2ccccc12)C(=O)N[C@@H](CCC(=O)C=[N+]=[N-])C(=O)OC(C)C
method,refers to,cell line,host,sample,metabolite peak area
UPLC-MS/MS metabolomics,fructose 6-phosphate,EL4,"C57BL/6 CES1-/- mice, EL4 tumour",tumour,2.42e+07 a.u. and 1.3e+07 a.u. and 1.94e+07 a.u. and 1.83e+07 a.u. and 2.04e+07 a.u. and 1.41e+07 a.u.
UPLC-MS/MS metabolomics,equol sulfate,EL4,"C57BL/6 CES1-/- mice, EL4 tumour",tumour,78500 a.u. and 114000 a.u. and 111000 a.u. and 92600 a.u. and 143000 a.u.
UPLC-MS/MS,uridine,,C57BL/6 CES1-/- mice,EL4 tumour,3.29e+07 a.u. and 9.85e+06 a.u. and 2.9e+07 a.u. and 3.12e+07 a.u. and 2.96e+07 a.u. and 1.35e+07 a.u.
UPLC-MS/MS metabolomics,creatine,EL4,"C57BL/6 CES1-/- mice, EL4 tumour",tumour,3.68e+09 a.u. and 3.22e+09 a.u. and 4.6e+09 a.u. and 5.93e+09 a.u. and 5.32e+09 a.u. and 7.46e+09 a.u.
UPLC-MS/MS metabolomics,dimethylglycine,EL4,"C57BL/6 CES1-/- mice, EL4 tumour",tumour,6.61e+06 a.u. and 9.07e+06 a.u. and 6.22e+06 a.u. and 6.79e+06 a.u. and 7.65e+06 a.u. and 5.47e+06 a.u.
UPLC-MS/MS metabolomics,fructose,EL4,"C57BL/6 CES1-/- mice, EL4 tumour",tumour,2.53e+07 a.u. and 1.87e+07 a.u. and 2.69e+07 a.u. and 8.02e+06 a.u. and 1.41e+07 a.u. and 7.81e+06 a.u.
UPLC-MS/MS,3-indoxyl sulfate,,C57BL/6 CES1-/- mice,EL4 tumour,535000 a.u. and 1.29e+06 a.u. and 329000 a.u. and 1.58e+06 a.u. and 243000 a.u. and 865000 a.u.
UPLC-MS/MS,tryptophan,,C57BL/6 CES1-/- mice,EL4 tumour,4.14e+08 a.u. and 4.31e+08 a.u. and 4e+08 a.u. and 3.99e+08 a.u. and 4.62e+08 a.u. and 3.11e+08 a.u.
UPLC-MS/MS metabolomics,cystathionine,EL4,"C57BL/6 CES1-/- mice, EL4 tumour",tumour,1.3e+06 a.u. and 2.47e+06 a.u. and 2.17e+06 a.u. and 1.99e+06 a.u. and 2.4e+06 a.u. and 1.59e+06 a.u.
UPLC-MS/MS metabolomics,dihydroxyacetone phosphate,EL4,"C57BL/6 CES1-/- mice, EL4 tumour",tumour,2.86e+06 a.u. and 2.75e+06 a.u. and 2.55e+06 a.u. and 1.92e+06 a.u. and 1.84e+06 a.u. and 2.42e+06 a.u.

# Series 3 — mode: inhibitor; notes: literature data
# Target: Synaptic vesicular amine transporter (SLC18A2, Homo sapiens, UniProt Q05940)
# UniProt Q05940, sequence (whole entry, looked up): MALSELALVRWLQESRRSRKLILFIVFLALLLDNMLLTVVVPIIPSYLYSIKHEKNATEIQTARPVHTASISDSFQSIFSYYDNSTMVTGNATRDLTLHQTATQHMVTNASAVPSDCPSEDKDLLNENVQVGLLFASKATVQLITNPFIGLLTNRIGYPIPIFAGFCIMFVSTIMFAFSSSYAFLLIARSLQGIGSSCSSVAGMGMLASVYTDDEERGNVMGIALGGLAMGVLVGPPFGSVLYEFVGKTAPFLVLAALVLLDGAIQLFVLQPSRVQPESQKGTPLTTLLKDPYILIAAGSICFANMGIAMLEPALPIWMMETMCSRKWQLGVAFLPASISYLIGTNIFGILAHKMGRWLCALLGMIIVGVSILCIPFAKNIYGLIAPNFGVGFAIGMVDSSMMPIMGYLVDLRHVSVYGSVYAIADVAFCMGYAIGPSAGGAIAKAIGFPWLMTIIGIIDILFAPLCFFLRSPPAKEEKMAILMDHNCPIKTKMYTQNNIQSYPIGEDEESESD
Compound,pIC50
Cc1cc2c(s1)Nc1ccccc1N=C2N1CCN(C)CC1,4.01
c1cnc(N2CCN(Cc3ccc4c(c3)OCO4)CC2)nc1,< 5.00
CCOc1cc2ncc(C#N)c(Nc3ccc(OCc4ccccn4)c(Cl)c3)c2cc1NC(=O)/C=C/CN(C)C,6.06
CCOc1ccccc1OCCN[C@H](C)Cc1ccc(OC)c(S(N)(=O)=O)c1,5.73
C[C@H](Cc1cc2c(c(C(N)=O)c1)N(CCCO)CC2)NCCOc1ccccc1OCC(F)(F)F,5.79
CS(=O)(=O)CCNCc1ccc(-c2ccc3ncnc(Nc4ccc(OCc5cccc(F)c5)c(Cl)c4)c3c2)o1,5.26
CCN(CC)CC#CCOC(=O)C(O)(c1ccccc1)C1CCCCC1 (stereo not drawn),5.17

# Series 4 — concentration: 0.1 µM
# Structure (SMILES): Cn1nc(C(=O)NCc2ccc(C(=O)O)cc2)cc1-c1ccc2[nH]ccc2c1
target,observed,method,remaining binding
"STK36 (Homo sapiens, UniProt Q9NRP7)",cell-free assay,competition with immobilised ligand,93%
"FYN (Homo sapiens, UniProt P06241)",cell-free assay,competition with immobilised ligand,98%
"Ribosomal protein S6 kinase alpha-2, N-terminal kinase domain (RPS6KA2, Homo sapiens, UniProt Q15349)",cell-free assay,competition with immobilised ligand,100%
"PI4KB (Homo sapiens, UniProt Q9UBF8)",cell-free assay,competition with immobilised ligand,70%
"MAP3K13 (Homo sapiens, UniProt O43283)",cell-free assay,competition with immobilised ligand,78%
"PRKACB (Homo sapiens, UniProt P22694)",cell-free assay,competition with immobilised ligand,98%
"CDC42BPG (Homo sapiens, UniProt Q6DT37)",,competition binding,100%
"PHKG1 (Homo sapiens, UniProt Q16816)",cell-free assay,competition with immobilised ligand,100%
"Tyrosine-protein kinase ABL1, phosphorylated (ABL1, Homo sapiens, UniProt P00519, Q252H)",cell-free assay,competition with immobilised ligand,77%
"MAP4K5 (Homo sapiens, UniProt Q9Y4K4)",cell-free assay,competition with immobilised ligand,96%
"PRKAA1 (Homo sapiens, UniProt Q13131)",cell-free assay,competition with immobilised ligand,81%
"CDK19 (Homo sapiens, UniProt Q9BWU1)",,competition binding,100%
"PLK2 (Homo sapiens, UniProt Q9NYY3)",cell-free assay,competition with immobilised ligand,100%
"MAP3K20 (Homo sapiens, UniProt Q9NYL2)",cell-free assay,competition with immobilised ligand,80%
"SGK1 (Homo sapiens, UniProt O00141)",cell-free assay,competition with immobilised ligand,88%
"SBK1 (Homo sapiens, UniProt Q52WX2)",cell-free assay,competition with immobilised ligand,77%
